Assay results from different studies.
Each line is one published result; not all experiments were run side by side. ± gives the spread as reported.
Target: Neutrophil elastase (ELANE, Homo sapiens, UniProt P08246)
Action: inhibitor
Sequence (P08246 30-267, as in one of the studies): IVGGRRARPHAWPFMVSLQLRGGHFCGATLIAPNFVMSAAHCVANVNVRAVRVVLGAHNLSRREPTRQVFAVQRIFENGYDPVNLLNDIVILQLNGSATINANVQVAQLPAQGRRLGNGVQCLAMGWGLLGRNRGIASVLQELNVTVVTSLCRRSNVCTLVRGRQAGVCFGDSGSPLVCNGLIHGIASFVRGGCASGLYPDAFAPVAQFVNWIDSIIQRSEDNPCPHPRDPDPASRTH

| SMILES | assay | conditions | endpoint | result |
| --- | --- | --- | --- | --- |
| O=C1CC(=O)c2cc(S(=O)(=O)n3cnc4ccccc43)ccc21 | enzyme activity, fluorescence | 10 µM | inhibition | 44.9% |
| O=C(Nc1cccc(C(=O)Nc2ccc(S(=O)(=O)O)c3cc(S(=O)(=O)O)cc(S(=O)(=O)O)c23)c1)Nc1cccc(C(=O)Nc2ccc(S(=O)(=O)O)c3cc(S(=O)(=O)O)cc(S(=O)(=O)O)c23)c1 | enzyme activity, chromogenic substrate hydrolysis | pH 7.4, 37 °C, 100 mM NaCl, added: substrate S-1384 | maximal inhibition | 62.7 ± 6.9% |
| CCc1nc2ccccc2n1S(=O)(=O)c1ccc2c(c1)C(=O)CC2=O | enzyme activity, fluorescence | 0.1 µM | inhibition | 42.1% |
| O=C(Nc1ccc(C(F)(F)F)cc1)Nc1ccccc1S(=O)(=O)O | enzyme activity, fluorescence | 100 µM | inhibition | 41.2% |
| Cc1nc2ccccc2n1S(=O)(=O)c1ccc2c(c1)C(=O)CC2=O | enzyme activity, fluorescence | 10 µM | inhibition | 25.4% |
| Cc1ccc(S(=O)(=O)N/N=C/c2ccsc2B(O)O)cc1 | enzyme activity | – | kon | 216 M⁻¹ s⁻¹ |
| O=C(N[C@@H](CC1CCCCC1)C(=O)N[C@@H](C[C@H]1CCNC1=O)C(=O)C(=O)NC1CC1)OCc1cccc(Cl)c1 | – | 17.5 µM | inhibition | 32% |
| COc1cc(-c2ccc(/N=N/c3ccc4c(S(=O)(=O)O)cc(S(=O)(=O)O)c(N)c4c3O)c(OC)c2)ccc1/N=N/c1ccc2c(S(=O)(=O)O)cc(S(=O)(=O)O)c(N)c2c1O | enzyme activity, chromogenic substrate hydrolysis | pH 7.4, 37 °C, 100 mM NaCl, added: substrate S-1384 | maximal inhibition | 108 ± 5.3% |
| OB1c2sccc2C=NN1Cc1ccccc1 | enzyme activity | – | kon | 12.8 M⁻¹ s⁻¹ |
| O=C(Nc1cc(C(=O)Nc2ccc(S(=O)(=O)O)cc2)cc(C(=O)Nc2ccc(S(=O)(=O)O)cc2)c1)Nc1cc(C(=O)Nc2ccc(S(=O)(=O)O)cc2)cc(C(=O)Nc2ccc(S(=O)(=O)O)cc2)c1 | enzyme activity, chromogenic substrate hydrolysis | pH 7.4, 37 °C, 100 mM NaCl, added: substrate S-1384 | Hill slope | 2.3 ± 0.3 |
| Cc1ccc(S(=O)(=O)N2N=Cc3ccsc3B2O)cc1 | enzyme activity | – | kon | 2.68 M⁻¹ s⁻¹ |

A few entries again:
| SMILES | assay | conditions | endpoint | result |
| --- | --- | --- | --- | --- |
| CCc1nc2ccccc2n1S(=O)(=O)c1ccc2c(c1)C(=O)CC2=O | enzyme activity, fluorescence | 0.1 µM | inhibition | 42.1% |
